{"data": "Measurements gathered from unrelated publications", "note": "Parts stem from different laboratories: compare values within a part only. Positions count from the first letter of the parent shown."}
{"data": "Study 1", "target": "Sal-like protein 4, full length isoform B (SALL4, Homo sapiens, UniProt Q9UJQ4-2, residues 1-616)", "technique": "universal PBM", "form": "double-stranded DNA, one strand shown", "medium": "in vitro", "tested at": "not given", "notes": "8-mer, flanks averaged, mean of replicates", "reading": "higher = stronger binding", "Residues (chain)": "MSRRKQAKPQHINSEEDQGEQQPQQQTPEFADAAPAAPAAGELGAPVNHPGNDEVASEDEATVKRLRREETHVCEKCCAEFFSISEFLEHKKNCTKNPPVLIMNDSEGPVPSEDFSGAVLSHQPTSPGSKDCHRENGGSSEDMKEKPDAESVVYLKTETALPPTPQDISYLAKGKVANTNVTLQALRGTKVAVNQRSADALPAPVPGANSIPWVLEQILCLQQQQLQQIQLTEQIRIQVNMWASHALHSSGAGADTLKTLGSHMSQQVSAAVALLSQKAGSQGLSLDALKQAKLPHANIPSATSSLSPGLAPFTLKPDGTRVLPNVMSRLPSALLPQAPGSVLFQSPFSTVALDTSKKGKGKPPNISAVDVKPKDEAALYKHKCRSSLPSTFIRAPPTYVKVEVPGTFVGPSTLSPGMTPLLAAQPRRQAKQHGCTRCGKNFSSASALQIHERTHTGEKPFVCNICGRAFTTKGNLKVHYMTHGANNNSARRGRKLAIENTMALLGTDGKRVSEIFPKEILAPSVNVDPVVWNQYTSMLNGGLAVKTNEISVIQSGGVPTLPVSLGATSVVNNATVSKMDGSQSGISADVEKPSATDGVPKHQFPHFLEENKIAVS"}
{"Strand": "GAGTGGCC", "E-score": -0.246}
{"Strand": "CTCCTGGC", "E-score": -0.183}
{"Strand": "CTCCTGCA", "E-score": -0.0683}
{"Strand": "CAGCGGCA", "E-score": -0.262}
{"Strand": "AACCAATA", "E-score": 0.232}
{"Strand": "AATTGGTC", "E-score": 0.131}
{"Strand": "GGTCATAC", "E-score": 0.0324}
{"Strand": "GTCTGGAA", "E-score": -0.0631}
{"Strand": "GTATGTGA", "E-score": 0.208}
{"Strand": "CCCCGCGA", "E-score": -0.292}
{"Strand": "ATACCGCG", "E-score": -0.112}
{"Strand": "GCACTCGC", "E-score": -0.156}
{"Strand": "CGTCCGCA", "E-score": -0.221}
{"Strand": "GAGACAAC", "E-score": -0.13}
{"Strand": "ATCTCGTG", "E-score": -0.0999}
{"Strand": "ATCAAACA", "E-score": 0.193}
{"Strand": "ACGGACGA", "E-score": -0.0502}
{"Strand": "CCCTCTCG", "E-score": -0.236}
{"Strand": "ATGCAATG", "E-score": 0.00403}
{"Strand": "TACGACTA", "E-score": 0.00083}
{"Strand": "ATAGTCAG", "E-score": 0.119}
{"Strand": "GGATATAC", "E-score": 0.139}
{"Strand": "CATGTGGC", "E-score": 0.00171}
{"data": "Study 2", "target": "Interferon regulatory factor 3, full length, phosphomimetic (IRF3, Homo sapiens, UniProt Q14653, residues 1-427, S386D/S396D/S398D/S402D/T404D/S405D)", "technique": "protein-binding microarray", "form": "double-stranded DNA, one strand shown", "medium": "in vitro", "tested at": "2540 nM top", "notes": "60-bp whole probe", "with": "salmon DNA 0.4 mg/ml", "reference": "random background probes", "reading": "higher = stronger binding", "shared flanks, not repeated": "GCCTAGCAC … GTCTTGATTCGCTTGACGCTGCTG", "Target sequence (chain)": "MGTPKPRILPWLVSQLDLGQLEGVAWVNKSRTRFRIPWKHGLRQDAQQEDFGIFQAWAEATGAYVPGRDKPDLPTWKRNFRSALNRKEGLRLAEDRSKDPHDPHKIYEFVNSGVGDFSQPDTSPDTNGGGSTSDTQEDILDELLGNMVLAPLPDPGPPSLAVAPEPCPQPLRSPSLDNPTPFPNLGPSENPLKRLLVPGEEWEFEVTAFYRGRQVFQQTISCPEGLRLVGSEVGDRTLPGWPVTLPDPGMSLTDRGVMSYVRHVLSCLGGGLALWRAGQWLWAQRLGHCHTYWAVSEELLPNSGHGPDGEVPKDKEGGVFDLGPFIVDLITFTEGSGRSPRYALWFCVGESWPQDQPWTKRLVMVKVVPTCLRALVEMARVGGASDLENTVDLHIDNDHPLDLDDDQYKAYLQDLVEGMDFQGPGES"}
{"Strand": "GACGGTTCCCTTTTCCTAACGTGCTAG", "fitted relative affinity [z-score]": 6.34}
{"Strand": "TTAGATCTCAGTACCGATTAGTGCTAG", "fitted relative affinity [z-score]": 0.763}
{"Strand": "GACGGTATTGACTATCGGGACGTGCTA", "fitted relative affinity [z-score]": -0.137}
{"Strand": "TTAGGTATCGACTAGCGGTTAGTGCTA", "fitted relative affinity [z-score]": 0.0217}
{"Strand": "TGGAGTCTCTGTTCTTTTCAGTGCTAG", "fitted relative affinity [z-score]": 0.775}
{"Strand": "GTAGGTTTCGGGTTTCGGTTAGTGCTA", "fitted relative affinity [z-score]": 6.32}
{"Strand": "TTCTAAATATCTTTGTTGAAGTGCTAG", "fitted relative affinity [z-score]": 0.407}
{"Strand": "TTAGGTAACGGTATCGGTTAGTGCTAG", "fitted relative affinity [z-score]": 2.17}
{"Strand": "TTAGGACTGCTTATCCTGTAGTGCTAG", "fitted relative affinity [z-score]": -0.344}
{"Strand": "TTAGAGATCAGTCTCGATTAGTGCTAG", "fitted relative affinity [z-score]": 0.825}
{"Strand": "GACGATCTCAGACTGGAGATGTGCTAG", "fitted relative affinity [z-score]": 0.214}
{"Strand": "TTAGGTTCCCGTTTCCTTTAGTGCTAG", "fitted relative affinity [z-score]": 5.59}
{"Strand": "CCATCTCAGCCTCCCCAAGGGTGCTAG", "fitted relative affinity [z-score]": 1.97}
{"Strand": "GACGATATCGGGTATCGAGAAGTGCTA", "fitted relative affinity [z-score]": 0.138}
{"Strand": "GACCAACTGAGTTTCGAGACGTGCTAG", "fitted relative affinity [z-score]": 1.36}
{"Strand": "GACGGAATCGACTTTCGGGACGTGCTA", "fitted relative affinity [z-score]": 0.778}
{"Strand": "TTAGGTTTCGGTATAGGTTAGTGCTAG", "fitted relative affinity [z-score]": 7.46}
{"Strand": "GACGGCCTGGGTCTCGGGACGTGCTAG", "fitted relative affinity [z-score]": -1.23}
{"Strand": "TCAAGTATGTTCCTTATTACTGTGCTA", "fitted relative affinity [z-score]": 1.66}
{"data": "Study 3", "target": "CCNE2, cyclin fold, Cln2 fusion (human)", "technique": "yeast growth competition, sequencing", "medium": "yeast", "notes": "strong parent motif", "reference": "not given", "reading": "higher = stronger binding", "starting sequence": "CDC25A docking peptide (human); PPHRRRLLFACSP; partner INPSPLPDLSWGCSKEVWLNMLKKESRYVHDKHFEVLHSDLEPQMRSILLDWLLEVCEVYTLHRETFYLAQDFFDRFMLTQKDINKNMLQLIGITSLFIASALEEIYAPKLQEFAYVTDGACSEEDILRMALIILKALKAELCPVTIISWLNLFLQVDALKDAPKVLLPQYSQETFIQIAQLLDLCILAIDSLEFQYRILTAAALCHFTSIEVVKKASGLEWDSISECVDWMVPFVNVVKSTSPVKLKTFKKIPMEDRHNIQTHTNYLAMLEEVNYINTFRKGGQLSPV"}
{"Variant": "PPHRRRLLFACCP [S12C]", "normalised enrichment score": 1.74}
{"Variant": "PPHRRTLLFACSP [R6T]", "normalised enrichment score": 1.22}
{"Variant": "PPHRRRLLPACSP [F9P]", "normalised enrichment score": 0.679}
{"Variant": "PPHRRRLLCACSP [F9C]", "normalised enrichment score": 0.592}
{"Variant": "PPHRRRLLFAESP [C11E]", "normalised enrichment score": 2.82}
{"Variant": "PPHHRRLLFACSP [R4H]", "normalised enrichment score": 0.526}
{"Variant": "PPHRRRLLFLCSP [A10L]", "normalised enrichment score": 1.35}
{"Variant": "PFHRRRLLFACSP [P2F]", "normalised enrichment score": 1.16}
{"Variant": "PPHRRRLLFACSN [P13N]", "normalised enrichment score": 2.18}
{"Variant": "PPQRRRLLFACSP [H3Q]", "normalised enrichment score": 0.717}
{"Variant": "PPNRRRLLFACSP [H3N]", "normalised enrichment score": 0.97}
{"Variant": "PWHRRRLLFACSP [P2W]", "normalised enrichment score": 1.43}
{"Variant": "PPERRRLLFACSP [H3E]", "normalised enrichment score": 0.983}
{"Variant": "PPHRRRLLFACSG [P13G]", "normalised enrichment score": 1.9}
{"Variant": "PPHRRRLLFAASP [C11A]", "normalised enrichment score": 2.82}
{"Variant": "PPHMRRLLFACSP [R4M]", "normalised enrichment score": 0.801}
{"Variant": "PPFRRRLLFACSP [H3F]", "normalised enrichment score": 2.56}
{"Variant": "PPHRRRFLFACSP [L7F]", "normalised enrichment score": 0.843}
{"data": "Study 4", "target": "ABI1, truncated, D143A, DHFR fusion (Arabidopsis thaliana)", "technique": "DHFR PCA, deep sequencing", "medium": "yeast", "notes": "methotrexate growth selection, single substitutions", "with": "(+)-ABA 17 µM", "reference": "wild-type fitted maximum", "reading": "higher = stronger binding", "starting sequence": "PYL1, truncated, DHFR fusion (Arabidopsis thaliana); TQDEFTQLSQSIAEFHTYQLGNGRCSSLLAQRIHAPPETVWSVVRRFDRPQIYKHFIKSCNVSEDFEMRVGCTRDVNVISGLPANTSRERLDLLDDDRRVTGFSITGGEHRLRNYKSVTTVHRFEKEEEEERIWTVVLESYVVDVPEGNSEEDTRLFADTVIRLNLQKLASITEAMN; partner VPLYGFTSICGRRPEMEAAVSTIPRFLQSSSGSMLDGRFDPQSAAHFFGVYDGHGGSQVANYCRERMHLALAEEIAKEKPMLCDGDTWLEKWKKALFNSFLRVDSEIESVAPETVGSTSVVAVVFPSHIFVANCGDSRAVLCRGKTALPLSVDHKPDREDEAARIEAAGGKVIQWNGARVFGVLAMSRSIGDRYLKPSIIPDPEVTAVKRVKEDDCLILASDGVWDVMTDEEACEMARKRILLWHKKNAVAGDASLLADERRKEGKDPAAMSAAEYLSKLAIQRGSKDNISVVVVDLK"}
{"Variant": "T39I", "relative binding score": "85.1%"}
{"Variant": "R132P", "relative binding score": "89.6%"}
{"Variant": "K126L", "relative binding score": "87.5%"}
{"Variant": "V161P", "relative binding score": "-15.1%"}
{"Variant": "Y141H", "relative binding score": "16.2%"}
{"Variant": "I162M", "relative binding score": "9.7%"}
{"Variant": "I133G", "relative binding score": "103%"}
{"Variant": "R111Q", "relative binding score": "24.2%"}
{"Variant": "R98D", "relative binding score": "29.3%"}
{"Variant": "E38G", "relative binding score": "60.4%"}
{"Variant": "R45F", "relative binding score": "-19.2%"}
{"Variant": "V118R", "relative binding score": "99.7%"}
{"Variant": "V43T", "relative binding score": "48.6%"}
{"Variant": "F47H", "relative binding score": "-8.78%"}
{"Variant": "R123F", "relative binding score": "36.7%"}
{"Variant": "V145Y", "relative binding score": "-10.2%"}
{"Variant": "L138W", "relative binding score": "6.57%"}
{"Variant": "L164W", "relative binding score": "64.4%"}
{"Variant": "A84Q", "relative binding score": "4.28%"}
{"Variant": "G102V", "relative binding score": "5.86%"}
{"Variant": "V143F", "relative binding score": "-7.06%"}
{"Variant": "N61H", "relative binding score": "88.1%"}
{"Variant": "L29P", "relative binding score": "15.1%"}
{"Variant": "R90L", "relative binding score": "22.8%"}
{"Variant": "R32H", "relative binding score": "80.1%"}
{"note": "A few entries again (study 1):"}
{"Strand": "TACGACTA", "E-score": 0.00083}
{"Strand": "ATAGTCAG", "E-score": 0.119}
{"Strand": "GGATATAC", "E-score": 0.139}
{"Strand": "CATGTGGC", "E-score": 0.00171}
